Measured values from different studies.
A part holds a random share of what one study measured. Numbers after ± are the reported error.
UniProt P10635, sequence (whole entry, looked up): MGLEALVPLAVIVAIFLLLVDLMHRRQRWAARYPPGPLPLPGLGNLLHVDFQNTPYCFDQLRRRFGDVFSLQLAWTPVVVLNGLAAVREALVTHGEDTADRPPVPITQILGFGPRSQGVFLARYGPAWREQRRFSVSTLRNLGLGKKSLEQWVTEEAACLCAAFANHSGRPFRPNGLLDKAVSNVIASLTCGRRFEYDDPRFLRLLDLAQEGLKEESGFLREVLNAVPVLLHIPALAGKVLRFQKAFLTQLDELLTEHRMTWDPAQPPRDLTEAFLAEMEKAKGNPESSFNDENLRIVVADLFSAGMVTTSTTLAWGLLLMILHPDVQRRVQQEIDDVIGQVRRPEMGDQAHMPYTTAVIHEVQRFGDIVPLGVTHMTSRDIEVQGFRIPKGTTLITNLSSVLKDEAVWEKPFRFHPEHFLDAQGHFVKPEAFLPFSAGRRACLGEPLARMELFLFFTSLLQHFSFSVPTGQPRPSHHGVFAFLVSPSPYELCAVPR
UniProt P33261, sequence (whole entry, looked up): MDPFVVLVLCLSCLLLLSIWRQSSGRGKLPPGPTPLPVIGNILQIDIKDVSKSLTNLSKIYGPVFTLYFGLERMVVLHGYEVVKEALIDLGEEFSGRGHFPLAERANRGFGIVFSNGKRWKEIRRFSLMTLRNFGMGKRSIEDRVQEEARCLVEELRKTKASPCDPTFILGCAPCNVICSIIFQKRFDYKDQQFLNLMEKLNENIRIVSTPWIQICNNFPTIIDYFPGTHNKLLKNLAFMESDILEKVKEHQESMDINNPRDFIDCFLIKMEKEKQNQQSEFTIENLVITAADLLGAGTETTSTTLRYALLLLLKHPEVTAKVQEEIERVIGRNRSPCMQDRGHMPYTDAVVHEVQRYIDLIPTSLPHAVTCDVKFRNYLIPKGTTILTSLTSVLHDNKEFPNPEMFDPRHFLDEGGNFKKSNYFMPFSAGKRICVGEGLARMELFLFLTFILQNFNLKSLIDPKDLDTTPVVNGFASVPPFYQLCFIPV

Series 1 — read-out: kinase activity; action: inhibitor; technique: ADP-Glo; tested at: 0.0027 µM
Target: Cyclin-dependent kinase 12, with cyclin K (CDK12, Homo sapiens, UniProt Q9NYV4)
UniProt Q9NYV4, sequence (whole entry, looked up): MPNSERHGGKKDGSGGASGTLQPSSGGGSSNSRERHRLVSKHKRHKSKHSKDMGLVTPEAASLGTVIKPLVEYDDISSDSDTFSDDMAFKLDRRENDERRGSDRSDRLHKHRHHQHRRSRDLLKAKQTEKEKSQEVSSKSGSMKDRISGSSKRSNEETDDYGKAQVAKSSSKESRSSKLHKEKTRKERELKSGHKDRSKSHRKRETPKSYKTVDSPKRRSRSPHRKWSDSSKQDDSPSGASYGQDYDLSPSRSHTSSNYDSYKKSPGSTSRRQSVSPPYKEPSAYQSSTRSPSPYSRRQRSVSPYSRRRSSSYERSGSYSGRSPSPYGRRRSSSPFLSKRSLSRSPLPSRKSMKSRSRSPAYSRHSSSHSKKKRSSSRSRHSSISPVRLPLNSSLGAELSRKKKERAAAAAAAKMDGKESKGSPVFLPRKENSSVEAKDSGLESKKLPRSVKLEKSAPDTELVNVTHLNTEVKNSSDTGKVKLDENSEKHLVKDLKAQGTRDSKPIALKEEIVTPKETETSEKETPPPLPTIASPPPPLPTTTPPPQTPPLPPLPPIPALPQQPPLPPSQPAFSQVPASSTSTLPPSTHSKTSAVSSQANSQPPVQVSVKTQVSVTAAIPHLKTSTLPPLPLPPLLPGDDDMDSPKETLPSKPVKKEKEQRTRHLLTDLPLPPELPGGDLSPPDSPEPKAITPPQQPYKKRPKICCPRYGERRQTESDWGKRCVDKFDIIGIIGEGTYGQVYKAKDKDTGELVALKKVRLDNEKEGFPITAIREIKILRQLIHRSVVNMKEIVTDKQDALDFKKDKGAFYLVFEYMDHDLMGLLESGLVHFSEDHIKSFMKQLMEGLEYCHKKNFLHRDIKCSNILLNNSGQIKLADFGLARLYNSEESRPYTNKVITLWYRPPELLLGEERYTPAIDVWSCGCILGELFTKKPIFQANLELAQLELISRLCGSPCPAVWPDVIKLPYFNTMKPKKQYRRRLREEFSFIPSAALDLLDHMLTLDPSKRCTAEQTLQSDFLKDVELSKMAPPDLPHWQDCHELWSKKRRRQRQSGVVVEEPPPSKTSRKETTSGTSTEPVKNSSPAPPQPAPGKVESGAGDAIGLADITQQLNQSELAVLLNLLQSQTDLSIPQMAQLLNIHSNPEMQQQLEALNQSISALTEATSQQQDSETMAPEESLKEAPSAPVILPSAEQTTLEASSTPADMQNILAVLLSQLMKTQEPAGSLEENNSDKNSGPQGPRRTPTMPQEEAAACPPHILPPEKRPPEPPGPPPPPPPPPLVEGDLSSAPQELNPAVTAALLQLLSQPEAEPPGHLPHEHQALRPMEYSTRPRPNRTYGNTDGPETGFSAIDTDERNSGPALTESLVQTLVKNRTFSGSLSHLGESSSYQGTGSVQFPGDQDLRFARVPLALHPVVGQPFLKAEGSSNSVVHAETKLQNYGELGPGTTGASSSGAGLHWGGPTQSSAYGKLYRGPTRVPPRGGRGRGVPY
Structure (SMILES)	inhibition
CCn1cnc2c(NCc3nc4cc(F)c(F)cc4[nH]3)nc(N3CCn4ncnc4C3)nc21	8.4%
CCn1cnc2c(NCc3nc4cc(Cl)c(Cl)cc4[nH]3)nc(N3CCC(NC(C)=O)CC3)nc21	-6.5%
CCn1cnc2c(NCc3nc4cc(Cl)c(Cl)cc4[nH]3)nc(N3CCN(C(C)=O)CC3)nc21	6.3%
CC(=O)N1CCN(c2nc(NCc3nc4cc(Cl)c(Cl)cc4[nH]3)c3ncn(C(C)C)c3n2)CC1	-4%
Cn1cc(-n2cnc3c(NCc4nc5cc(Cl)c(Cl)cc5[nH]4)nc(N4CCNCC4)nc32)cn1	-5.1%
CCn1cnc2c(NCc3nc4cc(Cl)c(Cl)cc4[nH]3)nc(N3CCN(C(=O)c4cccnc4)CC3)nc21	-14.4%
CCn1cnc2c(NCc3nc4cc(Cl)c(Cl)cc4[nH]3)nc(N3CCN(C(=O)c4ccccn4)CC3)nc21	-0.2%
CCn1cnc2c(NCc3nc4cc(Cl)c(Cl)cc4[nH]3)nc(N3CCN(S(C)(=O)=O)CC3)nc21	-5.7%

Series 2 — read-out: enzyme activity; sample: human liver microsomes; baseline: negative control
Structure (SMILES): Cn1cc(-c2cccc(CN3CCC4(CC3)COc3c4ccc4c3CN([C@H]3CCC(=O)NC3=O)C4=O)c2)cn1
CYP1A2: Cytochrome P450 1A2 (CYP1A2, Homo sapiens, UniProt P05177)
UniProt P05177, sequence (whole entry, looked up): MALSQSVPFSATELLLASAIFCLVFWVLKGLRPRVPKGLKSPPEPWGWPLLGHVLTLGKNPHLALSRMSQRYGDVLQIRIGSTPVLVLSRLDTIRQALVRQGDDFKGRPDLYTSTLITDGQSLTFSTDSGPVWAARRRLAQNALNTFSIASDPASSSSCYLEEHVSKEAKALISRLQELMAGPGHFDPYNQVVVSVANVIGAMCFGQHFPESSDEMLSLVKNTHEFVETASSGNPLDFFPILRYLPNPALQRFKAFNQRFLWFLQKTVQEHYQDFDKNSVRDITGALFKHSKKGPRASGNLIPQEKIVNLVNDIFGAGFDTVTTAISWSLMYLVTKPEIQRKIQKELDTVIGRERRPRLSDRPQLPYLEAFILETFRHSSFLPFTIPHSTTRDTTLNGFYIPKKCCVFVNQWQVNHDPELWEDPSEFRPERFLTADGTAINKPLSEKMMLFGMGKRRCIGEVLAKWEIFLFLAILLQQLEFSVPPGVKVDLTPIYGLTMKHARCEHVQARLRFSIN
CYP3A4: Cytochrome P450 3A4 (CYP3A4, Homo sapiens, UniProt P08684)
UniProt P08684, sequence (whole entry, looked up): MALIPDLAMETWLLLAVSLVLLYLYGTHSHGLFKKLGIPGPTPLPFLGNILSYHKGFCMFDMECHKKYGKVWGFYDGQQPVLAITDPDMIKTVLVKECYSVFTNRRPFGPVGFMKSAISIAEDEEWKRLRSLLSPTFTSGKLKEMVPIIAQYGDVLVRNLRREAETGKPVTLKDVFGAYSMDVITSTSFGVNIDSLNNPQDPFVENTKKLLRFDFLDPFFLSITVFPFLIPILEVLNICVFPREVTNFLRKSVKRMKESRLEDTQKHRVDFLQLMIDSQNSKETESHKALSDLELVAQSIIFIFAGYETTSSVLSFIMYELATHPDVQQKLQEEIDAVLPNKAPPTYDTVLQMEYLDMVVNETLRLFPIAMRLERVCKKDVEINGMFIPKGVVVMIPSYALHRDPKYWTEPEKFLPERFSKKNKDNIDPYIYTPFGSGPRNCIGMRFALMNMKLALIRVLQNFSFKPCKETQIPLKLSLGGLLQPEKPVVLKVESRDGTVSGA
CYP2C8: Cytochrome P450 2C8 (CYP2C8, Homo sapiens, UniProt P10632)
UniProt P10632, sequence (whole entry, looked up): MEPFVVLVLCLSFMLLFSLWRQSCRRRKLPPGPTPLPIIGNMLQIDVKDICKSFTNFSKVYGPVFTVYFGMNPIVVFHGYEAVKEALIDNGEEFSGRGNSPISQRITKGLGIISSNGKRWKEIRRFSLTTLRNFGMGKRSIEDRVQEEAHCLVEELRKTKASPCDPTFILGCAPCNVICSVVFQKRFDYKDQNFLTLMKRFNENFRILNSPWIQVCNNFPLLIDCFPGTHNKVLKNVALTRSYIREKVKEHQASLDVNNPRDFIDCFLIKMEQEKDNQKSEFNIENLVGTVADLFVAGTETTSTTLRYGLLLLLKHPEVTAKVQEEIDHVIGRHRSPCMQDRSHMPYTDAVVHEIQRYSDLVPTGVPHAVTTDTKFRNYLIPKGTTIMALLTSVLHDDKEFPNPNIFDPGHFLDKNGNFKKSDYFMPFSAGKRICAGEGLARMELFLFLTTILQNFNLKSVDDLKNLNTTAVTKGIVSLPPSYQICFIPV
target	tested at	with	remaining activity [%]
CYP1A2	0.04 µM		88.9
CYP2C19 (Homo sapiens, UniProt P33261)	0.04 µM		101
CYP3A4	1.11 µM	testosterone substrate	96.2
CYP2C8	0.12 µM		103
CYP2C8	0.04 µM		104
CYP1A2	0.37 µM		87.7
CYP3A4	3.33 µM	midazolam substrate	84
Cytochrome P450 2D6 (CYP2D6, Homo sapiens, UniProt P10635)	0.12 µM		103
CYP3A4	1.11 µM	midazolam substrate	101
CYP3A4	3.33 µM	testosterone substrate	82.5

Single results of other studies
SMILES	target or system	test	system	conditions	scale	measurement	result
CCOC(=O)/C=C/CNCCCCN1c2cc(Cl)ccc2CCc2cnn(C)c21.O=C(O)/C=C\C(=O)O			human liver microsomes	1 µM		intrinsic clearance	420 ± 28.3 µL/min/mg protein
CC(C)NC(=O)N1CCC(NC2=Nc3cc(F)ccc3N(CC(F)F)c3ccc(Cl)cc32)C1 (stereo in doubt)	sample I colorectal tumour organoid			0.1 µM	baseline: DMSO	viability	109%
CCONC(=O)/C=C/CNCCCCN1c2cc(Cl)ccc2CCc2cnn(C)c21.O=C(O)/C=C\C(=O)O			mouse liver microsomes	1 µM		intrinsic clearance	65.9 ± 8.4 µL/min/mg protein
CNC(=O)/C=C/CNCCCN1c2ccccc2CCc2ccc(Cl)cc21.Cl	E3 ubiquitin-protein ligase NEDD4 (Homo sapiens, UniProt P46934)	enzyme activity, inhibitor, TR-FRET		33 µM		inhibition	38.5%
Cn1ncc2c1N(CCCCNC/C=C/C#N)c1cc(Cl)ccc1CC2.O=C(O)/C=C\C(=O)O			mouse liver microsomes	1 µM		intrinsic clearance	125 ± 4.6 µL/min/mg protein

Some of these lines once more (series 1):
Structure (SMILES)	inhibition
CCn1cnc2c(NCc3nc4cc(Cl)c(Cl)cc4[nH]3)nc(N3CCN(C(=O)c4cccnc4)CC3)nc21	-14.4%
CCn1cnc2c(NCc3nc4cc(Cl)c(Cl)cc4[nH]3)nc(N3CCN(C(=O)c4ccccn4)CC3)nc21	-0.2%
